Measurements from different studies.
Numbered parts are unrelated; each lists some results of a single study. Substitutions count along the parent as printed.
UniProt Q96SW2, sequence (whole entry, looked up): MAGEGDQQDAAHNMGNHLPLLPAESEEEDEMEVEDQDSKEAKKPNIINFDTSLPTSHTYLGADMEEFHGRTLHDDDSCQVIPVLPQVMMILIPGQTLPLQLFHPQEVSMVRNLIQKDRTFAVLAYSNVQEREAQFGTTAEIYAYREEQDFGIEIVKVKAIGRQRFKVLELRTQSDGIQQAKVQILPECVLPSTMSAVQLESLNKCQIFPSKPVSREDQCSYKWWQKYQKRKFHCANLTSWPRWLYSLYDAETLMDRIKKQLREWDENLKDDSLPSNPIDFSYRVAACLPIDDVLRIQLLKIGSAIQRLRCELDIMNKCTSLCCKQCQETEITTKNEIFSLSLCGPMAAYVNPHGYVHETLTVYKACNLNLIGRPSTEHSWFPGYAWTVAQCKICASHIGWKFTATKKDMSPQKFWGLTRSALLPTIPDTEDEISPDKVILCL
UniProt Q9UQM7, sequence (whole entry, looked up): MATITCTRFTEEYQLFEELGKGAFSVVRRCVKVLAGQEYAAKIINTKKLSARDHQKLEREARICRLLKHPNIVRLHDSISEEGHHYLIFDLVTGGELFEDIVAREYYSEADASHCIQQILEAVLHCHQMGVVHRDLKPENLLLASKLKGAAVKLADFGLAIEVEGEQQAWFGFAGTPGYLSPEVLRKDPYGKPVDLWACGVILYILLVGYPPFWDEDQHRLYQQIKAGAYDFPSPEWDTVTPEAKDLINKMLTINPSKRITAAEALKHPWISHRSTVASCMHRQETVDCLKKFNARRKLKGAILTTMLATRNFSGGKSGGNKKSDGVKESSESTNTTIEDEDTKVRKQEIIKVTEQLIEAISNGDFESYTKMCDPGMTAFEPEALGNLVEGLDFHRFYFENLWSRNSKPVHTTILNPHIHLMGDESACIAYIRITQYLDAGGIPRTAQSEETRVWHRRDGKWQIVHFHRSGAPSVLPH
UniProt Q9UKS7, sequence (whole entry, looked up): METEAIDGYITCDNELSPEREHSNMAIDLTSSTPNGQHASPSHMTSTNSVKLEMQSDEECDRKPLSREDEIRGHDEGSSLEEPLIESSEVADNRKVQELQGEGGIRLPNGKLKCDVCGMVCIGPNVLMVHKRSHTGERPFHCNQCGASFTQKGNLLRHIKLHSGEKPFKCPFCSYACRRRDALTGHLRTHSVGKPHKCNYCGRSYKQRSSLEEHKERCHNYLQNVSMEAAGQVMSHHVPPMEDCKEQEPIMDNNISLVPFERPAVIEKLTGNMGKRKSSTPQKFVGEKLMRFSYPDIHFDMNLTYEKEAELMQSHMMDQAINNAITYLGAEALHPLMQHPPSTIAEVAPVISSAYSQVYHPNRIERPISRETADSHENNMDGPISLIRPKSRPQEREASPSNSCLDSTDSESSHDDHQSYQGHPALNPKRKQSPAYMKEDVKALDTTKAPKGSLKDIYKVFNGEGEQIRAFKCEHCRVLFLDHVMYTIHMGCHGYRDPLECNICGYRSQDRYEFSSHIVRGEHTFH

Series 1
Target: CCNE1, cyclin fold, Cln2 fusion (human)
Method: yeast growth competition, sequencing
Sample: yeast
Setting: strong parent motif
Relative to: not given
Reading: higher = stronger binding
Starting sequence: viral docking peptide; KGVKRKLFAEDSS
Under “normalised enrichment score”, `L7Y` is recorded as 0.09.
`D11T`: “normalised enrichment score” 7.04.
`R5N` — result for “normalised enrichment score”: 0.107.
For `A9C`, “normalised enrichment score” read 7.31.
For `F8D`, “normalised enrichment score” read 0.225.
For `K4C`, “normalised enrichment score” read 7.04.
`G2T`: “normalised enrichment score” 7.48.
`G2W`: “normalised enrichment score” 6.79.

Series 2
Target: UBE2D3 UBC core domain (UniProt P61077)
Method: yeast two-hybrid
Sample: yeast
Setting: mostly zero background
Relative to: not given
Reading: higher = stronger interaction
B1: IRF2BPL RING domain (UniProt Q9H1B7); chain SPMANSGPLCCTICHERLEDTHFVQCPSVPSHKFCFPCSRESIKAQGATGEVYCPSGEKCPLVGSNVP
B2: PHF21A RING domain (UniProt Q96BD5); chain SPTSTDGDIHEDFCSVCRKSGQLLMCDTCSRVYHLDCLDPPLKTIPKGMWICPRCQDQMLKKEEAIPW
B3: TRIM63 RING domain (UniProt Q969Q1); chain PMENLEKQLICPICLEMFTKPVVILPCQHNLCRKCANDIFQAANPYWTSRGSSVSMSGGRFRCPTCRHEVIMDRHGV
B4: ZNF598 RING domain (UniProt Q86UK7); chain AAAPERGGGSCVLCCGDLEATALGRCDHPVCYRCSTKMRVLCEQRYCAVCREELRQVVFGK
B5: RC3H2 RING domain (UniProt Q9HBD1); chain QAAQWTEFLSCPICYNEFDENVHKPISLGCSHTVCKTCLNKLHRKACPFDQTAINTDIDVL
Residues (chain): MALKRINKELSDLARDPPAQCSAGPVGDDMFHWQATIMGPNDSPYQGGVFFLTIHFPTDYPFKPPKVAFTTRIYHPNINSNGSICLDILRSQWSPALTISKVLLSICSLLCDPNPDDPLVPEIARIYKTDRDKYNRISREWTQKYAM
For `B1 (IRF2BPL RING domain)`, “lacZ reporter activity” read 0.
Under “lacZ reporter activity”, `QLRRLQEERTCKVCMDKEVSVVFIPCGHLVVCQECAPSLRKCPICRGIIKGTVRTF (BIRC2 RING domain (UniProt Q13490))` is recorded as 0.
Under “lacZ reporter activity”, `PEELQAMDNVCIICREEMVTGAKRLPCNHIFHTSCLRSWFQRQQTCPTCRMDVLRASLPA (SYVN1 RING domain (UniProt Q86TM6))` is recorded as 0.
Under “lacZ reporter activity”, `B2 (PHF21A RING domain)` is recorded as 0.
`RLTMMWEEVTCPICLDPFVEPVSIECGHSFCQECISQVGKGGGSVCPVCRQRFLLKNLRP (TRIM21 RING domain (UniProt P19474))`: “lacZ reporter activity” 0.
For `B3 (TRIM63 RING domain)`, “lacZ reporter activity” read 0.
Under “lacZ reporter activity”, `B4 (ZNF598 RING domain)` is recorded as 0.
`B5 (RC3H2 RING domain)`: “lacZ reporter activity” 0.

Other studies, line by line
The inhibition of CN(C)C(=O)c1sc2nc(N3CCC(S(C)(=O)=O)CC3)cc(C(F)(F)F)c2c1N is reported as 18.1% (Sodium-dependent serotonin transporter (SLC6A4, Homo sapiens, UniProt P31645); ligand displacement; 10 µM).
CC(C)[C@H]1OC(=O)[C@H](Cc2ccccc2)N(C)C(=O)[C@@H](C(C)C)OC(=O)[C@H](Cc2ccccc2)N(C)C(=O)[C@@H](C(C)C)OC(=O)[C@H](Cc2ccccc2)N(C)C1=O has an inhibition of 38% (Calcium/calmodulin-dependent protein kinase type II subunit alpha (CAMK2A, Homo sapiens, UniProt Q9UQM7); enzyme activity, inhibitor; 10 µM).
With O=C1CCC(N2Cc3c(ccc4c3OCC43CCN(Cc4ccsc4)CC3)C2=O)C(=O)N1 (stereo not shown) the protein remaining was 100% (CRBN/Zinc finger protein Helios (Homo sapiens, UniProt Q96SW2+Q9UKS7); degrader, HiBiT; HEK293; 0.1694 nM).

For quick reference, copied from above (series 1):
For `F8D`, “normalised enrichment score” read 0.225.
`G2W`: “normalised enrichment score” 6.79.
